Measured values from different studies.
A part holds a random share of what one study measured. Positions count from the first letter of the parent shown.

Study 1
Target: Ras GTPase-activating protein-binding protein 1, full length (G3BP1, Homo sapiens, UniProt Q13283)
UniProt Q13283, sequence (whole entry, looked up): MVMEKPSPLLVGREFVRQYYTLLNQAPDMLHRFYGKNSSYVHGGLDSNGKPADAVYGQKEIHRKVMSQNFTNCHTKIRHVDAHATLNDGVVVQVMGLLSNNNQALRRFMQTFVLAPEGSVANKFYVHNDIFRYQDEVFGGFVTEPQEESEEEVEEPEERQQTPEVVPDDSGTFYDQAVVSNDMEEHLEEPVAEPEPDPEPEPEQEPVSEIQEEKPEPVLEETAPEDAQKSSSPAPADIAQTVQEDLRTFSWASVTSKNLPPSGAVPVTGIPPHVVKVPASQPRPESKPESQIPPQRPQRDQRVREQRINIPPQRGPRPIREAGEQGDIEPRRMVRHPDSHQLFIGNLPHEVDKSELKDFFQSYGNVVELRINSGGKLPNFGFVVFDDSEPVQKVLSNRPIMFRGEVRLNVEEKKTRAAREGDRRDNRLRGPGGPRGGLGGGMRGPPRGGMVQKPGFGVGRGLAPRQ
Technique: RNA Bind-n-Seq
Molecule type: RNA
Medium: in vitro
Concentration: 200 nM
Setting: whole 134-nt RNA, ends assumed
Added: 150 mM KCl
Reference: input library
Direction: higher = stronger binding
Shared flanks, not repeated: GGGAGUUCUACAGUCCGACGAUC … UGGAAUUCUCGGGUGUCAAGG
Oligonucleotide	log2 enrichment
UGGGAGGUGGAUUUUGUUUAUUUUUUCAGCUCAUUUCCAGGGGUGGGAAUUUUUUUUUAAUAUGUGUCAUGAAUAAAGUUGUUUUUGAAA	0.173
CAAGUCCUGUGCUACACAUCGUAUGUACCGAAUCGGGGCCCGGCCCGGGCCCGGGAAAGUAUUAUGUUACGCCGUUCGGAUCUGCACUUC	-0.63
UGGGAGGUGGAUUUGGUUUAUUUUUUUAGCUCAUUUCCAGGGGUGGGAAUUUUUUUUUAAUAUGUGUCAUGAAUAAAGUUGUUUUUGAAA	0.0178
ACCAUGCAGGUGGGCAUCUUUGGGAAGUGGGGCAAGGGGGGGAUAGGGAGGGGGGUAACACUUUGGGAACAAGUGGUCCCAGGUCGUUUC	1.25
UCAAGUCCUGUGCUACACAUCGUAUGUACCGAAUCGGUUUGGAAAAAGGUUUGGAAAGUAUUAUGUUACGCCGUUCGGAUCUGCACUUCC	-1.03
AAGUCCUGUGCUACACAUCGUAUGUACCGAAUCGGGGUUUGGGGUGGGGUUUGGGGAAAGUAUUAUGUUACGCCGUUCGGAUCUGCACUU	0.24
ACCAUGCAGGUGGGCAUCUUUGGGAAGUGGGGCAAGGGGGGGAUAGGGAGGGGGGUAACACUUUGGGAACAGGUGGUCCCAAAUCGUUUC	0.908
CACAGACAACACGCACCCACACAGACACAGAGGGAAGGGGUUGGGAUGGGGACAGGGUGCACAGCAGGGCGGGGUAGGACCCCACCCCCU	1.93
GCAGGAAGUAAAAACAAAUAGAAAUGCUUCGGAUAGUGGCAGGGGUGGGGGUUGCUAAGGAAAGGGUGGGAUGGGAGUGGGUAAAGAGUU	0.872

Study 2
Target: Histone acetyltransferase KAT6A, both winged helices, GST fusion (KAT6A, Homo sapiens, UniProt Q92794, residues 1-181)
Technique: protein binding microarray
Molecule type: double-stranded DNA, one strand shown
Medium: in vitro
Concentration: not given
Setting: 8-mer, flanks averaged, mean of 2 arrays, mostly near background
Reference: not given
Direction: higher = stronger binding
Residues (chain): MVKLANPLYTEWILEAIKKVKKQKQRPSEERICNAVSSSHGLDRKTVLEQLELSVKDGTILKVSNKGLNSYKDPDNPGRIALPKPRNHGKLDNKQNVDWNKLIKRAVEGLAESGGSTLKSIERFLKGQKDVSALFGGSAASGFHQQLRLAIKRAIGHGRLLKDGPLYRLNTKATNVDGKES
Oligonucleotide	E-score
CACAGTTC	0.00634
CGACGTAA	0.0968
AGTGAAGC	0.0404
ACGGTGCA	0.0467
AACCGAAG	-0.00543
GAGACCGC	0.172
CCGCTTCC	0.181
CGTGTGTC	0.0912
AACCGGAC	0.0747
GAAGAATC	-0.0635
TATTTCAA	-0.0646
CGGTCGTC	0.153
GTTTCAGA	-0.0546
ATCACACA	-0.261
AGCGACCC	0.0956
ATTACGCG	0.312
AAGTGTCT	-0.192
GGATCTTA	-0.0377
AGTCGGTC	0.0856
AATTAAAC	-0.0859
AAGGGCTG	-0.142
GAGTTCAC	-0.109
ATAGCTGG	-0.151
CCGATTGC	0.153

Study 3
Target: CCNE2, cyclin fold, Cln2 fusion (human)
Technique: yeast growth competition, sequencing
Medium: yeast
Setting: strong parent motif
Reference: not given
Direction: higher = stronger binding
Parent: RBL2 docking peptide (human); STTRRRLFVENDS; partner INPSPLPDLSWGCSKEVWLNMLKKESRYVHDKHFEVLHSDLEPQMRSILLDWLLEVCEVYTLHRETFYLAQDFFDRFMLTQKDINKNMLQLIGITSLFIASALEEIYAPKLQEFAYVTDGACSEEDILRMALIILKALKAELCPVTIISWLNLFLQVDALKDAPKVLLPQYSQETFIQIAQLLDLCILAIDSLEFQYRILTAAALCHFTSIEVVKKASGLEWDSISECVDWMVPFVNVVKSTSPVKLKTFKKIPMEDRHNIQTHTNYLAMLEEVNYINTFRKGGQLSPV
Change	normalised enrichment score
STTRRRGFVENDS [L7G]	-0.629
STTRRRLFFENDS [V9F]	4.81
STTRRRLFVENGS [D12G]	4.28
STTRRRLFYENDS [V9Y]	3.55
SMTRRRLFVENDS [T2M]	4.1
STTRRPLFVENDS [R6P]	-0.593
STTRRRLFVNNDS [E10N]	2.8
STTKRRLFVENDS [R4K]	3.26
RTTRRRLFVENDS [S1R]	4.71
STTRKRLFVENDS [R5K]	1.16
STTRRRLFVEGDS [N11G]	4.55
STTRRREFVENDS [L7E]	0.34
STTRRRLFVETDS [N11T]	4.28
STTRRFLFVENDS [R6F]	0.885
STTRRRLVVENDS [F8V]	0.463
STTRRRLFVENDL [S13L]	4.35
STTRRRLFVENDW [S13W]	5.02
STTRRRLRVENDS [F8R]	0.00145
STTRRSLFVENDS [R6S]	0.555
STTRRRAFVENDS [L7A]	1.44
STTRRRLFVENLS [D12L]	2.32
STTARRLFVENDS [R4A]	2.05
STTRRRLDVENDS [F8D]	0.503
WTTRRRLFVENDS [S1W]	2.62
STTRRRIFVENDS [L7I]	0.963

Study 4
Target: Prothrombin, mature alpha-thrombin (F2, Homo sapiens, UniProt P00734)
Technique: aptamer microarray, sandwich
Molecule type: DNA with 2'F-ANA
Medium: in vitro
Concentration: 200 nM
Setting: whole 15-mer aptamer, many near background
Added: Cy3 exosite-II aptamer, 400 nM
Direction: higher = stronger binding
Oligonucleotide: GGTTGGTGTGGTTGG
Modification	mean fluorescence intensity [a.u.]
2'F-ANA at 1 2 4 5 7 11 14 15	43.6
2'F-ANA at 5 6 7 8 9 10 12 13 14	48
2'F-ANA at 2 3 4 6 8 9 10 12	289
2'F-ANA at 1 3 4 5 6 8 9 15	71.6
2'F-ANA at 5 6 7 12 14 15	46.1
2'F-ANA at 2 4 6 7 15	314
2'F-ANA at 2 3 4 7 8 9 10 11 12	304
2'F-ANA at 1 3 6 9 12	514
2'F-ANA at 2 3 4 5 7 10 11 14	45.4
2'F-ANA at 1 3 4 5 7 8 9 12	141
2'F-ANA at 1 3 5 7 9 12 13 15	81
2'F-ANA at 3 9 10 13 14	439
2'F-ANA at 1 2 3 4 5 7 11 13	46.6
2'F-ANA at 2 4 5 6 8 9 10 13 15	56.6
2'F-ANA at 3 7 13	993
2'F-ANA at 2 4 5 6 7 11 12 13 14 15	51.1
2'F-ANA at 1 4 6 9 11 12 15	174
2'F-ANA at 1 2 3 5 6 8 9 11 13 15	111
2'F-ANA at 2 3 4 5 6 9 10 12 13 14 15	48.3
2'F-ANA at 2 3 5 8 11 13	85.9
2'F-ANA at 1 2 7 8 10 12 14 15	91.6

Excerpt of the above (study 1):
Oligonucleotide	log2 enrichment
CAAGUCCUGUGCUACACAUCGUAUGUACCGAAUCGGGGCCCGGCCCGGGCCCGGGAAAGUAUUAUGUUACGCCGUUCGGAUCUGCACUUC	-0.63
UGGGAGGUGGAUUUGGUUUAUUUUUUUAGCUCAUUUCCAGGGGUGGGAAUUUUUUUUUAAUAUGUGUCAUGAAUAAAGUUGUUUUUGAAA	0.0178
ACCAUGCAGGUGGGCAUCUUUGGGAAGUGGGGCAAGGGGGGGAUAGGGAGGGGGGUAACACUUUGGGAACAAGUGGUCCCAGGUCGUUUC	1.25
UCAAGUCCUGUGCUACACAUCGUAUGUACCGAAUCGGUUUGGAAAAAGGUUUGGAAAGUAUUAUGUUACGCCGUUCGGAUCUGCACUUCC	-1.03
AAGUCCUGUGCUACACAUCGUAUGUACCGAAUCGGGGUUUGGGGUGGGGUUUGGGGAAAGUAUUAUGUUACGCCGUUCGGAUCUGCACUU	0.24
